{"data": "Assay results collected from several papers", "note": "Parts stem from different laboratories: compare values within a part only. Substitutions count along the parent as printed."}
{"data": "Set 1", "target": "Ras GTPase-activating protein-binding protein 1, full length (G3BP1, Homo sapiens, UniProt Q13283)", "technique": "RNA Bind-n-Seq", "molecule type": "RNA", "sample": "in vitro", "tested at": "200 nM", "setting": "whole 134-nt RNA, ends assumed", "together with": "150 mM KCl", "baseline": "input library", "direction": "higher = stronger binding", "all sequences stand within": "GGGAGUUCUACAGUCCGACGAUC … UGGAAUUCUCGGGUGUCAAGG", "UniProt Q13283, sequence (whole entry, looked up)": "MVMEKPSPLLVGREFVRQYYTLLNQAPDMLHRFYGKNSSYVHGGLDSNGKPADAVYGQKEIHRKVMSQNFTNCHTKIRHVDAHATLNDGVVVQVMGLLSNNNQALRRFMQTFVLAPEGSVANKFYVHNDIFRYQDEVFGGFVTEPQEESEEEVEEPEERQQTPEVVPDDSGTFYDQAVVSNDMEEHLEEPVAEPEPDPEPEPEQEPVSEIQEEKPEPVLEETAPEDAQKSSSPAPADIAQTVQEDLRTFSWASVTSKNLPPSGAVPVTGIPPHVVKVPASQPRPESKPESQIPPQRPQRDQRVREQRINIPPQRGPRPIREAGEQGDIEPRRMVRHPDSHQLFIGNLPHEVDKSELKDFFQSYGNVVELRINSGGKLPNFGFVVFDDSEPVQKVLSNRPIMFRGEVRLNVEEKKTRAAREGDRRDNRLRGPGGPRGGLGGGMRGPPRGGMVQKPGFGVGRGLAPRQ"}
{"Sequence": "CCUGUGCUACACAUCGUAUGUACCGAAUCGGAAAAAAGGGGAAAAAAGGGAAAAAAGGGGAAAGUAUUAUGUUACGCCGUUCGGAUCUGC", "log2 enrichment": -0.754}
{"Sequence": "UGGCCCUGGUGGCAUGCGGGGAGGACGAGGUGGCCUCAUGGAUCGUGGUGGUCCCGGUGGAAUGUUCAGAGGUGGCCGUGGUGGAGACAG", "log2 enrichment": 0.168}
{"Sequence": "AAGUCCUGUGCUACACAUCGUAUGUACCGAAUCGGGCCCCGGCCCCGGGGCCCCGGGAAAGUAUUAUGUUACGCCGUUCGGAUCUGCACU", "log2 enrichment": -1.31}
{"Sequence": "UGGACCUGGUGGCAUGCGGGGAGGAAGAGGUGGCCUCAUGGAUCGUGGUGGUCCCGGUGGAAUGUUCAGAGGUGGCCGUGGUGGAGACAG", "log2 enrichment": 0.633}
{"Sequence": "CCUGUGCUACACAUCGUAUGUACCGAAUCGGGGCCCCCCGGCCCCCCGGGGCCCCCCGGGGAAAGUAUUAUGUUACGCCGUUCGGAUCUG", "log2 enrichment": -0.267}
{"Sequence": "AGUCCUGUGCUACACAUCGUAUGUACCGAAUCGGGUUUGGGUUUUUGGGAAAAAGGGAAAGUAUUAUGUUACGCCGUUCGGAUCUGCACU", "log2 enrichment": -0.235}
{"Sequence": "CACAGACAACACGCACCCACACAGACACAGAGGGAAGGGGUUGGGAUGGGGACAGGGUGCACAUCAGGGCGGGGUAGGACCCCAGCCCCU", "log2 enrichment": 1.87}
{"Sequence": "AGUCCUGUGCUACACAUCGUAUGUACCGAAUCGGGGAGGGGAGGGGUUUUUUUGGGGAAAGUAUUAUGUUACGCCGUUCGGAUCUGCACU", "log2 enrichment": 0.537}
{"Sequence": "UGGCCCUGGUGGCAUGCGGGGAGGAAGAGGUGGCCUCAUGGAUCGUGGUGGUCCCGGUGGAAUGUUCAGAGGUGGCCGUGGUGGAGACAA", "log2 enrichment": 0.102}
{"Sequence": "CUGUGCUACACAUCGUAUGUACCGAAUCGGGGUUUGGGGUUUUUUUGGGGUUUUUUUGGGGAAAGUAUUAUGUUACGCCGUUCGGAUCUG", "log2 enrichment": -0.265}
{"Sequence": "GCAGGAAGUAAAAACAAAUGGAAAUGCUUCGGAUAGUGGCAGGGGUAAAGGUUGCUAAGGAAAGGGUGGGAUGGGAGUGGGUAAAGAGUU", "log2 enrichment": 0.936}
{"Sequence": "GAAAUUAUGGAAGUGGAAAUUACAAUGAUUUUGGAAAUUAUAACCAGCAACCUUCUAACUACGGUCCAAUGAAGAGUGGAAACUUUGGUG", "log2 enrichment": -1.32}
{"Sequence": "UCAAGUCCUGUGCUACACAUCGUAUGUACCGAAUCGGUUUUUUUGGAGGUUUGGAAAGUAUUAUGUUACGCCGUUCGGAUCUGCACUUCC", "log2 enrichment": -0.942}
{"Sequence": "UCAAGUCCUGUGCUACACAUCGUAUGUACCGAAUCGGGAAGGGGAAGGGAAGGGGAAAGUAUUAUGUUACGCCGUUCGGAUCUGCACUUC", "log2 enrichment": 1.02}
{"data": "Set 2", "target": "Prothrombin, mature alpha-thrombin (F2, Homo sapiens, UniProt P00734)", "technique": "aptamer microarray, sandwich", "molecule type": "DNA with 2'F-ANA", "sample": "in vitro", "tested at": "200 nM", "setting": "whole 15-mer aptamer, many near background", "together with": "Cy3 exosite-II aptamer, 400 nM", "direction": "higher = stronger binding", "sequence": "GGTTGGTGTGGTTGG"}
{"Modification": "2'F-ANA at 4 5 8 10 11", "mean fluorescence intensity [a.u.]": 55.6}
{"Modification": "2'F-ANA at 4 6 9 10 11 12 13", "mean fluorescence intensity [a.u.]": 169}
{"Modification": "2'F-ANA at 3 6 7 9 11 14 15", "mean fluorescence intensity [a.u.]": 477}
{"Modification": "2'F-ANA at 2 7 9 10 11 12 13 14 15", "mean fluorescence intensity [a.u.]": 94.8}
{"Modification": "2'F-ANA at 1 3 6 7 11 15", "mean fluorescence intensity [a.u.]": 208}
{"Modification": "2'F-ANA at 1 2 3 4 5 7 8 15", "mean fluorescence intensity [a.u.]": 76.7}
{"Modification": "2'F-ANA at 3 5 6 7 8 11 12", "mean fluorescence intensity [a.u.]": 239}
{"Modification": "2'F-ANA at 1 5 7 10 13 14", "mean fluorescence intensity [a.u.]": 74}
{"Modification": "2'F-ANA at 1 5 6 7 9 12 13 14 15", "mean fluorescence intensity [a.u.]": 45.8}
{"Modification": "2'F-ANA at 6 9 12 13 14 15", "mean fluorescence intensity [a.u.]": 172}
{"Modification": "2'F-ANA at 2 4 6 7 8 9 10 11", "mean fluorescence intensity [a.u.]": 77.6}
{"Modification": "2'F-ANA at 2 5 7 9 11 12 13 14", "mean fluorescence intensity [a.u.]": 55.1}
{"Modification": "2'F-ANA at 1 2 3 4 5 7 9 11 12 14 15", "mean fluorescence intensity [a.u.]": 51.9}
{"Modification": "2'F-ANA at 3 7 10 12 13 15", "mean fluorescence intensity [a.u.]": 546}
{"Modification": "2'F-ANA at 1 3 5 7 9 10", "mean fluorescence intensity [a.u.]": 50.3}
{"Modification": "2'F-ANA at 2 4 5 9 10 11 12", "mean fluorescence intensity [a.u.]": 49.5}
{"data": "Set 3", "target": "ABI1, truncated, D143A, DHFR fusion (Arabidopsis thaliana)", "technique": "DHFR PCA, deep sequencing", "sample": "yeast", "setting": "methotrexate growth selection, single substitutions", "together with": "(+)-ABA 0.0091 µM", "baseline": "wild-type fitted maximum", "direction": "higher = stronger binding", "parent": "PYL1, truncated, DHFR fusion (Arabidopsis thaliana); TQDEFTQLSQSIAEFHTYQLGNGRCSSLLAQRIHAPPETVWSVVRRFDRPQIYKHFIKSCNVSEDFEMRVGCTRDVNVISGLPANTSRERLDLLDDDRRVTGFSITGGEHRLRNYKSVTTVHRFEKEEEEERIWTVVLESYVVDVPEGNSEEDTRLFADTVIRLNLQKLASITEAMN; partner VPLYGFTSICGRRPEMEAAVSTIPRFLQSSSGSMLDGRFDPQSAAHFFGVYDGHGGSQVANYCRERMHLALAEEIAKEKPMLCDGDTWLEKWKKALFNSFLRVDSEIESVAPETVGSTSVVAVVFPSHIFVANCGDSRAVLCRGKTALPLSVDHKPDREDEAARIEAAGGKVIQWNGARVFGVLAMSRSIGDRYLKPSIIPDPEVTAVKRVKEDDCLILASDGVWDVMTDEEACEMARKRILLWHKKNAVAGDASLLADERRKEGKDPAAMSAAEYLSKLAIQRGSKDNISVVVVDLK"}
{"Substitution": "Y53V", "relative binding score [%]": -3.15}
{"Substitution": "T73L", "relative binding score [%]": 9.63}
{"Substitution": "L93A", "relative binding score [%]": 3.37}
{"Substitution": "V143Y", "relative binding score [%]": -2.93}
{"Substitution": "L138N", "relative binding score [%]": -0.894}
{"Substitution": "L28N", "relative binding score [%]": -2.48}
{"Substitution": "E131I", "relative binding score [%]": 24.3}
{"Substitution": "G71D", "relative binding score [%]": -4.55}
{"Substitution": "A84S", "relative binding score [%]": 39.9}
{"Substitution": "G148I", "relative binding score [%]": 1.76}
{"Substitution": "L166G", "relative binding score [%]": -1.94}
{"Substitution": "E38C", "relative binding score [%]": -6.43}
{"Substitution": "R32A", "relative binding score [%]": 17.4}
{"Substitution": "I33E", "relative binding score [%]": -2.33}
{"data": "Set 4", "target": "Interferon regulatory factor 5, full length, phosphomimetic (IRF5, Homo sapiens, UniProt Q13568-2, residues 1-514, S451D/S453D/S456D/S462D)", "technique": "protein-binding microarray", "molecule type": "double-stranded DNA, one strand shown", "sample": "in vitro", "tested at": "940 nM top", "setting": "60-bp whole probe", "together with": "salmon DNA 0.4 mg/ml", "baseline": "random background probes", "direction": "higher = stronger binding", "all sequences stand within": "GCCTAGCAC … GTCTTGATTCGCTTGACGCTGCTG"}
{"Sequence": "GACGGTTCCGATTTCGGGACGTGCTAG", "fitted relative affinity [z-score]": 1.14}
{"Sequence": "TCATAATTCCTGCCTGAGACTGTGCTA", "fitted relative affinity [z-score]": 0.635}
{"Sequence": "TTAGTTTTCGGGACTGGATTAGTGCTA", "fitted relative affinity [z-score]": 2.01}
{"Sequence": "TCAGTTTTCTAAACCATACTGTGCTAG", "fitted relative affinity [z-score]": 0.486}
{"Sequence": "TTAGGTTCCGGTTTCTGTTAGTGCTAG", "fitted relative affinity [z-score]": 5.07}
{"Sequence": "TCACTTTCCACTTGTCTTTTCGTGCTA", "fitted relative affinity [z-score]": 2.36}
{"Sequence": "TCAGGTATCGACACTGGGTTAGTGCTA", "fitted relative affinity [z-score]": 3.65}
{"Sequence": "TTAGAACCGGGGTATCGATTAGTGCTA", "fitted relative affinity [z-score]": 3.1}
{"Sequence": "GACGATCTCAATCTCGAGACGTGCTAG", "fitted relative affinity [z-score]": 0.524}
{"Sequence": "TTAGGTATCGACAATGGGTTAGTGCTA", "fitted relative affinity [z-score]": 4.84}
{"Sequence": "GACGGTCTCCTTTACCTGACGTGCTAG", "fitted relative affinity [z-score]": 0.548}
{"Sequence": "TTAGGACTTGACTATCGGTTAGTGCTA", "fitted relative affinity [z-score]": -0.0914}
{"Sequence": "TTAGGACTGGGTATCGGCTAGTGCTAG", "fitted relative affinity [z-score]": 0.845}
{"Sequence": "CACGATTTCGGGACTGGAGACGTGCTA", "fitted relative affinity [z-score]": 0.0753}
{"Sequence": "GACGATATTAGTCTCGAGACGTGCTAG", "fitted relative affinity [z-score]": 1.31}
{"Sequence": "GACGATCTCAGTTTCGAGAAGTGCTAG", "fitted relative affinity [z-score]": 3.62}
{"Sequence": "TTAGATATCGGGTATCGATAAGTGCTA", "fitted relative affinity [z-score]": 2.43}
{"Sequence": "GACGAACTGAGTCTCAAGACGTGCTAG", "fitted relative affinity [z-score]": -0.396}
{"Sequence": "GACGATTTCAGACTGAAGACGTGCTAG", "fitted relative affinity [z-score]": -0.511}
{"Sequence": "TTACATATCGGGTATCGATTAGTGCTA", "fitted relative affinity [z-score]": 3.36}
{"data": "Set 5", "target": "CCND1, cyclin fold, Cln2 fusion (human)", "technique": "yeast growth competition, sequencing", "sample": "yeast", "setting": "strong parent motif", "baseline": "not given", "direction": "higher = stronger binding", "parent": "E2F1 docking peptide (human); PPVKRRLDFETDH"}
{"Substitution": "T11Q", "normalised enrichment score": 2.88}
{"Substitution": "E10I", "normalised enrichment score": 1.23}
{"Substitution": "L7I", "normalised enrichment score": 3.15}
{"Substitution": "D12M", "normalised enrichment score": 2.93}
{"Substitution": "D12I", "normalised enrichment score": 2.99}
{"Substitution": "E10W", "normalised enrichment score": 0.29}
{"Substitution": "T11V", "normalised enrichment score": 2.85}
{"Substitution": "V3D", "normalised enrichment score": 0.028}
{"Substitution": "T11M", "normalised enrichment score": 2.95}
{"Substitution": "F9H", "normalised enrichment score": -0.129}
{"Substitution": "R5G", "normalised enrichment score": 0.463}
{"Substitution": "R5T", "normalised enrichment score": 0.204}
{"Substitution": "V3I", "normalised enrichment score": 2.33}
{"Substitution": "R5Q", "normalised enrichment score": 0.606}
{"Substitution": "E10T", "normalised enrichment score": 2.47}
{"Substitution": "T11G", "normalised enrichment score": 2.88}
{"Substitution": "E10H", "normalised enrichment score": 1.82}
{"Substitution": "D8T", "normalised enrichment score": 2.96}
{"Substitution": "L7G", "normalised enrichment score": -0.292}
{"Substitution": "L7W", "normalised enrichment score": -0.149}
{"Substitution": "E10F", "normalised enrichment score": 1.11}
{"Substitution": "E10Y", "normalised enrichment score": 1.14}
{"Substitution": "T11E", "normalised enrichment score": 3.27}
{"Substitution": "E10N", "normalised enrichment score": 2.95}
{"Substitution": "V3T", "normalised enrichment score": 3}
